{"data": "Assay results from different studies", "note": "Lines come from different studies, so protocols differ. ± marks the error that the study gave."}
{"Structure (SMILES)": "CCC(CC)OC1C=C(C(=O)OC(C)OC(=O)C(N)C(C)C)CC(NC(=N)N)C1NC(C)=O (mixture of isomers)", "test system": "mouse (fasted), plasma", "setting": "oral, 10 mg/kg", "Cmax": "541 ± 227 ng/mL"}
{"Structure (SMILES)": "CC[C@H](C)[C@H](NC(=O)CNC(=O)[C@@H](NC(=O)[C@H](Cc1ccc(O)cc1)NC(=O)[C@@H](NC(=O)[C@H](CO)NC(=O)[C@@H](NC(=O)[C@H](C)NC(=O)[C@@H]1CCCN1C(=O)[C@@H](NC(=O)[C@H](Cc1ccccc1)NC(=O)[C@H](CCCCN)NC(=O)[C@H](CCC(=O)O)NC(=O)[C@H](Cc1ccc(O)cc1)NC(=O)[C@H](CC(C)C)NC(=O)[C@H](CC(=O)O)NC(=O)[C@H](CCCNC(=N)N)NC(=O)[C@H](CC(C)C)NC(=O)[C@H](CCCCN)NC(=O)[C@H](CCC(=O)O)NC(=O)[C@H](Cc1ccccc1)NC(=O)[C@@H](NC(=O)[C@H](CCC(=O)O)NC(=O)[C@H](CCCCN)NC(=O)[C@H](CC(C)C)NC(=O)[C@H](Cc1ccc(O)cc1)NC(=O)[C@@H](N)CC(=O)O)C(C)C)[C@@H](C)O)C(C)C)[C@@H](C)O)[C@@H](C)O)C(=O)N[C@@H](Cc1ccccc1)C(=O)N[C@H](C(=O)N[C@@H](CC(=O)O)C(=O)N[C@@H](CCC(N)=O)C(=O)N[C@H](C(=O)N[C@@H](CC(C)C)C(=O)N[C@@H](CO)C(=O)N[C@H](C(=O)N[C@@H](CC(C)C)C(=O)N[C@@H](CCCCN)C(=O)NCC(=O)N[C@@H](CCC(=O)O)C(=O)N[C@@H](CCC(=O)O)C(=O)O)C(C)C)C(C)C)[C@@H](C)O", "test system": "C57BL/6 mouse, plasma", "setting": "subcutaneous, 10 mg/kg", "Cmax": "150000 ng/mL"}
{"Structure (SMILES)": "CC(=O)N[C@@H](Cc1ccc(O)cc1)C(=O)N[C@@H](CC(C)C)C(=O)N[C@@H](CS)C(=O)N[C@@H](CO)C(=O)N[C@@H](CO)C(=O)N[C@@H](CC(N)=O)C(=O)N[C@@H](CC(N)=O)C(=O)N[C@@]1(C)CCCC=CCCC[C@@](C)(C(=O)N[C@@H](CCCCN)C(=O)N[C@@H](Cc2ccccc2)C(=O)N[C@@H](CCCNC(=N)N)C(=O)N[C@@H](CCCNC(=N)N)C(=O)NCC(=O)NCC(=O)N[C@@H](CO)C(=O)NCC(=O)NCC(=O)N[C@H](C(=O)N[C@@H](CO)C(=O)N[C@@H](Cc2ccccc2)C(=O)N[C@@]2(C)CCCC=CCCC[C@@](C)(C(=O)N[C@@H](Cc3c[nH]c4ccccc34)C(=O)N[C@@H](CC(C)C)C(=O)N[C@@H](Cc3c[nH]c4ccccc34)C(=O)N3CCC[C@H]3C(N)=O)NC(=O)[C@H](Cc3c[nH]c4ccccc34)NC(=O)[C@H](Cc3ccccc3)NC(=O)[C@H](CCC(N)=O)NC2=O)[C@@H](C)O)NC(=O)[C@H](CCCNC(=N)N)NC(=O)[C@H](CCC(=O)O)NC(=O)[C@H](CCCNC(=N)N)NC1=O", "test system": "C57BL/6J mouse, male, plasma", "setting": "intraperitoneal, dose not given", "Cmax": "104000 ng/mL"}
{"Structure (SMILES)": "C[C@@](O)(C(F)F)[C@H](NC(=O)c1ccc(C#CC#CC2CC2)cc1)C(=O)NO", "test system": "CD-1 mouse", "setting": "oral, 40 mg/kg, fasted", "Cmax": "14700 ± 2700 ng/mL"}
{"Structure (SMILES)": "CC(C)(CCCC/C=C/CCCCCC(C)(C)C(=O)O)C(=O)O", "test system": "ICR mouse, plasma", "setting": "oral, 10 mg/kg", "Cmax": "25600 ng/mL"}
{"Structure (SMILES)": "C/C(=N\\OCCCN1CCCCC1)c1ccc(C(F)(F)F)cc1", "test system": "C57BL/6 mouse", "setting": "intravenous, 5 mg/kg", "Cmax": "279 ± 4.51 ng/mL"}
{"Structure (SMILES)": "CN1CCN(c2cccc(Nc3cc4c(cn3)cc(-c3cccc(O)c3)c(=O)n4C)c2)CC1", "test system": "mouse", "setting": "intraperitoneal, 30 mg/kg/day", "Cmax": "42 µM"}
{"Structure (SMILES)": "CC(C)N1CCCCC1C(=O)NC(Cc1ccc(-c2ccccc2)cc1)B(O)O (stereo not shown)", "test system": "SCID mouse, P. falciparum model, blood", "setting": "oral, 25 mg/kg once daily for 4 days, 1 h", "Cmax": "0.609 µM"}
{"Structure (SMILES)": "N#CC1(c2ccc3c(N)ncnn23)OC(COP(=O)(O)OP(=O)(O)OP(=O)(O)O)C(O)C1O (stereo not shown)", "assay": "LC-MS/MS", "test system": "CD-1 mouse, kidney", "setting": "oral, 100 mg/kg of remdesivir", "Cmax": "1390 nmol/kg"}
{"Structure (SMILES)": "CCCCCCCC/C=C\\CCCCCCCCOP(O)(O)=S.N", "test system": "mouse, female, nonirradiated", "setting": "sc, dose not given", "Cmax": "302 ng/mL"}
